Measured values from different studies.
Each numbered part is a random draw from the data of one study; scales do not carry over between parts.

Set 1
Target: Interferon regulatory factor 3, full length, phosphomimetic (IRF3, Homo sapiens, UniProt Q14653, residues 1-427, S386D/S396D/S398D/S402D/T404D/S405D)
Chain of UniProt Q14653 (whole entry, unmodified, looked up): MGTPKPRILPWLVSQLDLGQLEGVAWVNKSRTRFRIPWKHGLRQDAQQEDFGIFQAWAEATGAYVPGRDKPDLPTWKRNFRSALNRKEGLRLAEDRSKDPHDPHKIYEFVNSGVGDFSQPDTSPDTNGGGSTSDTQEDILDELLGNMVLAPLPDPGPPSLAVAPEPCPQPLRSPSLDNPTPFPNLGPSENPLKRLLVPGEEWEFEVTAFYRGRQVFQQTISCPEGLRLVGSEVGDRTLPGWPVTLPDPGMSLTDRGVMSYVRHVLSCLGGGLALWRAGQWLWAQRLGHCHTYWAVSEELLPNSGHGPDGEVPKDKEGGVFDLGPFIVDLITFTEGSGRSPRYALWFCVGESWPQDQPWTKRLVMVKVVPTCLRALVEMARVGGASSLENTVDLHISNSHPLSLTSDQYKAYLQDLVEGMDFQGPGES
Method: protein-binding microarray
Molecule type: double-stranded DNA, one strand shown
Medium: in vitro
Concentration: 2540 nM top
Notes: 60-bp whole probe
Together with: salmon DNA 0.4 mg/ml
Baseline: random background probes
Reading: higher = stronger binding
All sequences stand within: GCCTAGCAC … GTCTTGATTCGCTTGACGCTGCTG
Oligonucleotide | fitted relative affinity [z-score]
GACGGTATCTGGACTGGGGACGTGCTA | 0.437
TTAGGTTCTCTTTTCCTTTAGTGCTAG | 3.36
ACCTATGTGTACCACTAGACGTGCTAG | 0.716
TAAAATTTTGCTTCTAGAACGTGCTAG | 0.623
TTCTATATTTGCTTCAGGTTGTGCTAG | 0.801
GACTCTTCAGCACTCGGGTCGTGCTAG | -0.126

Set 2
Target: Histone acetyltransferase KAT6A, winged helix 2, GST fusion (KAT6A, Homo sapiens, UniProt Q92794, residues 85-181)
Method: protein binding microarray
Molecule type: double-stranded DNA, one strand shown
Medium: in vitro
Concentration: not given
Notes: 8-mer, flanks averaged, mean of 2 arrays, mostly near background
Baseline: not given
Reading: higher = stronger binding
Target sequence (chain): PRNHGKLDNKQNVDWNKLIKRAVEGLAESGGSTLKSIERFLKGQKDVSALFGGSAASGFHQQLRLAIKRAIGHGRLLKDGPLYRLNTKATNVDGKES
Oligonucleotide | E-score
CATTTTGA | 0.0354
ATCGCGGC | 0.222
GTTTAGGA | -0.167
CCGGATCC | 0.0198
CGATAGGA | -0.0537
CCTATGTA | -0.111

Set 3
Target: Prothrombin, mature alpha-thrombin (F2, Homo sapiens, UniProt P00734)
Method: aptamer microarray, sandwich
Molecule type: DNA with 2'F-ANA
Medium: in vitro
Concentration: 200 nM
Notes: whole 15-mer aptamer, many near background
Together with: Cy3 exosite-II aptamer, 400 nM
Reading: higher = stronger binding
Oligonucleotide: GGTTGGTGTGGTTGG
Modification | mean fluorescence intensity [a.u.]
2'F-ANA at 3 4 5 7 8 10 13 | 110
2'F-ANA at 2 3 4 6 7 9 12 14 | 235
2'F-ANA at 2 6 7 8 9 10 11 13 14 | 74.6
2'F-ANA at 1 2 3 5 6 7 9 10 11 12 | 50.7
2'F-ANA at 1 2 3 8 11 15 | 228
2'F-ANA at 2 3 4 6 7 11 15 | 493

Set 4
Substance: PhoQ, residues 284 288 289 292 302 303 ALVSVA
Method: Sort-seq
Measured: YFP reporter
Medium: E. coli
Notes: PhoQ-PhoP variant library
Together with: 10 µM Mg2+
Baseline: high Mg2+ state
Reading: higher = stronger signaling
target | fold induction
PhoP, residues 12 14 15 18 19 TQALL (Escherichia coli, UniProt P23836) | 1.49
PhoP, residues 12 14 15 18 19 NYFRM (Escherichia coli, UniProt P23836) | 11
PhoP, residues 12 14 15 18 19 QYFSL (Escherichia coli, UniProt P23836) | 11.1
